Experimental data pooled from the literature.
Every numbered part comes from another study and shows a few of its results, in no order. Positions count from the first letter of the parent shown.
UniProt Q9BYT3, sequence (whole entry, looked up): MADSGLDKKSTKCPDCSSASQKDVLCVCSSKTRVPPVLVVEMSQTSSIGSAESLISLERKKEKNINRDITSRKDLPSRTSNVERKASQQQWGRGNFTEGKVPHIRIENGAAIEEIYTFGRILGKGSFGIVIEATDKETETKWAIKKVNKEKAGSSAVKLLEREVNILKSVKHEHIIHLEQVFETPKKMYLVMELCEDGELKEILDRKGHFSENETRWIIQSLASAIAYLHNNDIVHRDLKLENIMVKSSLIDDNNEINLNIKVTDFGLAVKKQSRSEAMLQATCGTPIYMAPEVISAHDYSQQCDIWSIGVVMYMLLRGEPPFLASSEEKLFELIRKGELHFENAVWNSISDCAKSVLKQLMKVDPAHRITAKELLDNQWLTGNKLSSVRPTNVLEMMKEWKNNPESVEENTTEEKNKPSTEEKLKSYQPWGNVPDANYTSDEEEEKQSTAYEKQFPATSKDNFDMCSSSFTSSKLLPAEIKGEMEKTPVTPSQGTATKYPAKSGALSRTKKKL

Sample 1
Target: UDP-N-acetylglucosamine--peptide N-acetylglucosaminyltransferase 110 kDa subunit (OGT, Homo sapiens, UniProt O15294)
UniProt O15294, sequence (whole entry, looked up): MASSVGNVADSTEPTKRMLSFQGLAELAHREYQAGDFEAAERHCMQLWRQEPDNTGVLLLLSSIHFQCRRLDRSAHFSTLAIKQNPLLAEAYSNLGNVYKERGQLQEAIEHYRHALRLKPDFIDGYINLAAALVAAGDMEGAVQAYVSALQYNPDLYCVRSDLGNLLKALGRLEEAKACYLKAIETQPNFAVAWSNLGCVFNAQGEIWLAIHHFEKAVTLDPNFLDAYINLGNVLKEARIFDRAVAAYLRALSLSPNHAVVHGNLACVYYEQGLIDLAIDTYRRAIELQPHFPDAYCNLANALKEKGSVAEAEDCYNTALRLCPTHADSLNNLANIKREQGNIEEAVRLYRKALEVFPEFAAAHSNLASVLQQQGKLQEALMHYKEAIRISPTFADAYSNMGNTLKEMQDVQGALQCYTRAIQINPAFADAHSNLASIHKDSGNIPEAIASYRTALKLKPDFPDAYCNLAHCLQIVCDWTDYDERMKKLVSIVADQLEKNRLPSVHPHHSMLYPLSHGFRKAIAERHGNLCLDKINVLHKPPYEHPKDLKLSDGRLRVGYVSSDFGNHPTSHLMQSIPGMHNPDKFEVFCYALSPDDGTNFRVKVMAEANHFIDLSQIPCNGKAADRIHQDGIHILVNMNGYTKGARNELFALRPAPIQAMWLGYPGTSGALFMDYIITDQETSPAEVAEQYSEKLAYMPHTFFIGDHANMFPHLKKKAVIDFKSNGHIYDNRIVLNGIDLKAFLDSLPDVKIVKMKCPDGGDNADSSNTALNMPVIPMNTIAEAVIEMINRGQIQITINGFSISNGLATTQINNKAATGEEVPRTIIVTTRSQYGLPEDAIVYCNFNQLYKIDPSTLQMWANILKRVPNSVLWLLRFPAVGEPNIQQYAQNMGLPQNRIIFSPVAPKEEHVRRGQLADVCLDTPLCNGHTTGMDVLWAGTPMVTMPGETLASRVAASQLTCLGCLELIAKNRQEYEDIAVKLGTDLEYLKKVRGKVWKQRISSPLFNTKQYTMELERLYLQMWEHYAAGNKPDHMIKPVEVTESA
Effect on: binding
Technique: phage display NGS
Molecule type: peptide
Reference: input library
| Molecule | minimum log2 enrichment ratio |
| --- | --- |
| TIIHHTSTANRQHAS | 2.87 |
| TIYLPKYQIFTAIT | 4.99 |
| HSTPYHYSHVHEPYF | 2.02 |
| ATWHPYHHGHEYIV | 3.15 |
| HDQRHHQRETKGEVH | 2.13 |
| HGIYWRGLADHGLD | 2.33 |
| SFPHRVHHEHSYYEH | 3.15 |
| DHHYHPHTWTWFTAP | 1.94 |

Sample 2
Target: inorganic phosphate, free oxyanion
Technique: microfluidic competitive inhibition
Medium: in vitro, cell-free expressed
Tested at: not given
Notes: derived from inhibition constants, unchanged parent 615000 nM
Reading: lower = stronger binding
Starting sequence: PafA, mature enzyme, eGFP fusion (Elizabethkingia meningoseptica, UniProt Q9KJX5); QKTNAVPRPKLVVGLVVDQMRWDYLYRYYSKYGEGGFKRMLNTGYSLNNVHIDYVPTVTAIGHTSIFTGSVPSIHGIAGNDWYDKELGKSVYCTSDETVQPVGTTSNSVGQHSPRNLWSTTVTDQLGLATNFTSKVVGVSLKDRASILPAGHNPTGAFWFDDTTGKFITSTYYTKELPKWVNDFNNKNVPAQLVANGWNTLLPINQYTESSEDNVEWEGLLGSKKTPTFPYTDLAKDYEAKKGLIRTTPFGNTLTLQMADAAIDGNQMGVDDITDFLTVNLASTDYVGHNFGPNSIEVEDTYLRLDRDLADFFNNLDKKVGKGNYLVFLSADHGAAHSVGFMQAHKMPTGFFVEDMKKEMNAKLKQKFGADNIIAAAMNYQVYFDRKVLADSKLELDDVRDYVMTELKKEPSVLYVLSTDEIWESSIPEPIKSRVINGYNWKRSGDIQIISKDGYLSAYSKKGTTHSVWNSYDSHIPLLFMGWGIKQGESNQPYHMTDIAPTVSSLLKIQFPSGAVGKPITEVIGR
| Change | phosphate dissociation constant [µM] |
| --- | --- |
| K442V | 617 |
| V139A | 595 |
| V403G | 574 |
| V58G | 290 |
| T208V | 672 |
| L220G | 483 |
| A362G | 627 |
| L117G | 471 |

Sample 3
Target: CCND1, cyclin fold, Cln2 fusion (human)
Technique: yeast growth competition, sequencing
Medium: yeast
Notes: strong parent motif
Reference: not given
Reading: higher = stronger binding
Starting sequence: viral docking peptide; KGVKRKLFAEDSS; partner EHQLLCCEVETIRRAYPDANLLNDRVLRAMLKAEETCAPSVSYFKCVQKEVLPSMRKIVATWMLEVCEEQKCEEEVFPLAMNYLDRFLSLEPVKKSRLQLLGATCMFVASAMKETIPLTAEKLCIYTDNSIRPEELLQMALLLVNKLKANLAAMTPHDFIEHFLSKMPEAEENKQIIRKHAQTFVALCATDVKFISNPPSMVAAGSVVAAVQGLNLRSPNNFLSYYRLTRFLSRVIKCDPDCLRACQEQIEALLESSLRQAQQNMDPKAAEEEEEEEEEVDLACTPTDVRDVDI
| Change | normalised enrichment score |
| --- | --- |
| KGPKRKLFAEDSS [V3P] | 2.66 |
| KGVKPKLFAEDSS [R5P] | 0.298 |
| KGVKRKLFAKDSS [E10K] | 0.085 |
| KGVKRVLFAEDSS [K6V] | 1.01 |
| KGVKRKLLAEDSS [F8L] | -0.0764 |
| KGVKRKLFAEISS [D11I] | 0.441 |
| KGVKRKLFAEDLS [S12L] | 1.42 |
| KSVKRKLFAEDSS [G2S] | 2.08 |

Single results of other studies
| SMILES | target | assay | conditions | quantity | result |
| --- | --- | --- | --- | --- | --- |
| O=C1Nc2ccc3ncsc3c2/C1=C/c1cnc[nH]1 | Serine/threonine-protein kinase 33 (STK33, Homo sapiens, UniProt Q9BYT3) | enzyme activity, inhibitor, radiometric | 0.5 µM | remaining activity | 35.7% |

Excerpt of the above (sample 2):
| Change | phosphate dissociation constant [µM] |
| --- | --- |
| A362G | 627 |
| V58G | 290 |
| T208V | 672 |
